Published values pooled from the literature.
A part holds a random share of what one study measured.

Set 1
Target: Interferon regulatory factor 3, full length, phosphomimetic (IRF3, Homo sapiens, UniProt Q14653, residues 1-427, S386D/S396D/S398D/S402D/T404D/S405D)
Technique: protein-binding microarray
Molecule type: double-stranded DNA, one strand shown
Sample: in vitro
Tested at: 2540 nM top
Notes: 60-bp whole probe
Together with: salmon DNA 0.4 mg/ml
Relative to: random background probes
Direction: higher = stronger binding
Constant ends, left off below: GCCTAGCAC … GTCTTGATTCGCTTGACGCTGCTG
Target sequence (chain): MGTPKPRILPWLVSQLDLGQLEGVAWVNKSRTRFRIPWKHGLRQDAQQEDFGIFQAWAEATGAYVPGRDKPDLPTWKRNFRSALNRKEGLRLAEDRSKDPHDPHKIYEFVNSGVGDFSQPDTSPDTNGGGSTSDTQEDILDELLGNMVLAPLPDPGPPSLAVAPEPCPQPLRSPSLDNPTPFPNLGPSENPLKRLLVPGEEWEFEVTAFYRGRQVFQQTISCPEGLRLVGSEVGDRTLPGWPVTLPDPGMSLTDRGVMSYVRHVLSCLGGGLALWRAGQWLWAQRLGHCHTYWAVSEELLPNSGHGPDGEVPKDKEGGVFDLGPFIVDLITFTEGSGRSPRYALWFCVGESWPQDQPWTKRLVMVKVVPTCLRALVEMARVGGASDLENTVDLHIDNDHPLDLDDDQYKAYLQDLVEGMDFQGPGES
| Strand | fitted relative affinity |
| --- | --- |
| TCATCTTTTATTTTTTTACTGTGCTAG | 1.28 z-score |
| CACAGAATCCCCTTCTACTCGTGCTAG | 1.55 z-score |
| TTAGATATTAGTATCGATTAGTGCTAG | 0.993 z-score |
| TTAGATATCGGGTTTCGATTAGTGCTA | 2.07 z-score |
| TTAGAGCTGGGGTATCGATTAGTGCTA | -0.779 z-score |
| CTCTTCTTTTTTTTCTTTAAGTGCTAG | 2.15 z-score |
| GACGGAATGGACTATCGGGACGTGCTA | -0.209 z-score |
| TCAATTCTCTGCTTGGGACTGTGCTAG | 0.575 z-score |
| TTAGGCTTCGGTTCCGGTTAGTGCTAG | 1.87 z-score |
| TGAGGTATCGGGTATCGGTTAGTGCTA | 1.59 z-score |
| GACGGTATCGACTATCGGAACGTGCTA | 1 z-score |
| TCATTTCCCAGAACTGGAACTGTGCTA | 1.97 z-score |
| TTAGATATCAGTATCGATGAGTGCTAG | 1.23 z-score |
| TTAGGTTTCCTACTGTTTTAGTGCTAG | 4.4 z-score |
| TCACAAGTCTTGTTTTACACTGTGCTA | 0.25 z-score |
| GACGGTACCGGGTTTCGGGACGTGCTA | 1.52 z-score |
| GTGTTCTGGGCAGCAGAGGGGTGCTAG | -0.63 z-score |

Set 2
Target: Centromere-binding protein 1, full length, N-terminal tag (CBF1, Saccharomyces cerevisiae, UniProt P17106, residues 1-351)
Sequence of UniProt P17106 (whole entry, looked up): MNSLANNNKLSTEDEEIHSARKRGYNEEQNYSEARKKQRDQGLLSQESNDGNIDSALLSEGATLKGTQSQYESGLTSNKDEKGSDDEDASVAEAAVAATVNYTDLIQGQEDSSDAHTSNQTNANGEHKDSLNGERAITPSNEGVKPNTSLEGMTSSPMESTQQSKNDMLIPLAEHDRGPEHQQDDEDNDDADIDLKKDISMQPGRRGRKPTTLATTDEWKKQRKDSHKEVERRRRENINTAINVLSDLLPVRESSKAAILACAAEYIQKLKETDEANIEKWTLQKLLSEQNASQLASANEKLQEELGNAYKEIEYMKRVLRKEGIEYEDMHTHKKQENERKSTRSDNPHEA
Technique: protein-binding microarray
Molecule type: double-stranded DNA, one strand shown
Sample: in vitro
Tested at: 0.8 µM
Notes: whole 60-bp probe, no competitor
Direction: higher = stronger binding
| Strand | fluorescence intensity [a.u.] |
| --- | --- |
| CTATCATTGAAAAGGAACGTGATACAGACGTAATTCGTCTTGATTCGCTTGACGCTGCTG | 1480 |
| GAACATCAATAAGTCATCACCATTAGAGAGTTGTAGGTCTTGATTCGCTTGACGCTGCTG | 572 |
| GAATCACCAAGCTATCTGGTGTCACATTGTGAATAGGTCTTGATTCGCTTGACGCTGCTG | 738 |
| CTACTTGGCATTCATCACCCGGTGATGCTGCGCTTCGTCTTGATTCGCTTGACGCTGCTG | 473 |
| GAACATTGCTATCATGACGTATTTTTAATGTTATAGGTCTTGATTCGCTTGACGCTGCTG | 568 |
| GAACAAATGTGCTCAGCTGTGATTCATTGAAATTAGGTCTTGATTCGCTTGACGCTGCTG | 523 |
| CTACAACGCAATACTTACGTCACACCAGCCGTATTCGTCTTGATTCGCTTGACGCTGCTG | 598 |
| TGTACGAAGCTATTTCATGTGGGTATAGTAGTTAGGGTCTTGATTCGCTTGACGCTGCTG | 530 |
| CTAGGAAATACGTGGAACGTGTAATATGTTGTTTTCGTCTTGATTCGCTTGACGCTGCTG | 549 |
| GAATACAGATGTTTTAGGGTGACATAAAATTGATAGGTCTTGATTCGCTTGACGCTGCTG | 553 |
| TGTACGAAGCTATTACACGTTACTATAGTAGTTAGGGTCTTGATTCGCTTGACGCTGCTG | 589 |
| CTACCTTACATCCGTCACGAAACTCTTATGGCTTTCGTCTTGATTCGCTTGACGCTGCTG | 542 |
| TGTACGAAGCTATAAAACGTGATTATAGTAGTTAGGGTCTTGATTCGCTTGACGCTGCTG | 1540 |
| GAAAAGTGGATCGAGAACGTGTCAAAGATTCCGTAGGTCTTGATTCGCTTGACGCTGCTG | 600 |
| CTAGAACACTTTAATCACGCTTATTTAATTAAGTTCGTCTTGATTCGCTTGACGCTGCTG | 1030 |
| CTATTACCCCGTAACCACGAGTTGCGGTGTTTTTTCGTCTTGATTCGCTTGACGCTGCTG | 508 |
| CTACTGGCGGTAAGTCACCTTTAGTTATCCTTCTTCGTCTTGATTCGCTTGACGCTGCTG | 473 |

Set 3
Target: Sal-like protein 4, full length isoform B (SALL4, Homo sapiens, UniProt Q9UJQ4-2, residues 1-616)
Technique: universal PBM
Molecule type: double-stranded DNA, one strand shown
Sample: in vitro
Tested at: not given
Notes: 8-mer, flanks averaged, mean of replicates
Direction: higher = stronger binding
| Strand | E-score |
| --- | --- |
| ACTGAACA | 0.103 |
| AGGCGTTC | -0.176 |
| CCAGGTCG | -0.295 |
| CGCCCATA | -0.0723 |
| GATAGCAA | 0.201 |
| TAAAATTA | 0.347 |
| AGGTGCAC | -0.17 |
| ACCCGGGT | -0.252 |
| AGTCTGAA | -0.091 |
| AGAAGAAT | 0.168 |
| GAGTCGGA | -0.145 |
| TCGACCCA | -0.128 |
| ATTCATCG | 0.0438 |
| AATACCGG | -0.0356 |
| CCAAGCAA | -0.0927 |

Set 4
Target: RNA binding protein fox-1 homolog 2, RRM domain, GST-SBP tag (RBFOX2, Homo sapiens, UniProt O43251-10, residues 100-194)
Technique: RNA Bind-n-Seq
Molecule type: RNA
Sample: in vitro
Tested at: 365 nM
Notes: natural RNA segment, single round, ends assumed
Relative to: no-protein control
Direction: higher = stronger binding
Construct (chain): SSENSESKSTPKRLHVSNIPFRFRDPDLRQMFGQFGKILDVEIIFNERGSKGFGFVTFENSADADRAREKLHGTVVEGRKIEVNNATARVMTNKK
| Strand | RBNS enrichment (R) |
| --- | --- |
| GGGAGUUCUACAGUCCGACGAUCAUAACUAAACUGAAUAUCAUCCCAUAUUGAUUUUAGGAAUUGACUCUAAAACUCUGUGCAGAAUCUUGUGUUGGGAUUGUAUCUUGACAUUCCUGUUGUGUUAUUUUUCUUGGAAUUCUCGGGUGCCAA | 0.529 |
| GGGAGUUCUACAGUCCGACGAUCGACCCUGCCACUGCUUCUUGCCCUGAGGUUUGGAAGCUGAGAGUUAUAGAAGCCAAUUCACCAGGAGGUAAGACAUCCCAGGCUGACAUGGGCAAAUGAAAAGGGCUAUUUGGAAUUCUCGGGUGCCAA | 0.502 |
| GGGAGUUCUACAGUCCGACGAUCUCCGUCCCCCAAACAUGUUGUACAUUUCACCAUGGCCCCCUCAUCAUAGCAAUAACAUUCCCACUGCCAGGGGUUCUUGAGCCAGCCAGGCCCUGCCAGUGGGGAAGGAGUGGAAUUCUCGGGUGCCAA | 0.58 |
| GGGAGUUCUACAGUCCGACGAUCAUUGAAAAUGUUUAAUACAUCUCAUUAUUGACAAAAUAUGUCAUCUUGUAUUUAUUUCAAGGAAACCAAUGAAUUCUAGGUAGUAUAUUACAAGUUGGUCAAAAUAUUCCUGGAAUUCUCGGGUGCCAA | 0.901 |
| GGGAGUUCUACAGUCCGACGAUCCCUGCUGUAUUUGUUGUGUAACAUAAAUAAGCCUUCUGAGAAGCAGGGUGAAUAAAGUUUAGGGAGCUGGGACACCUGGUCCUGCUAGCUGGACCACUGGCUCAUCAUGCUGGAAUUCUCGGGUGCCAA | 0.331 |
| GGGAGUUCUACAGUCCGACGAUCGAUAGAGGCAACUCCCAGGCCAGUGAGCUUUACUUGCCGUGUAAAAGGAGGAAAGGGGUGGAAAAAAACCGACUUUCUGCAUUUAACUACAAAAAAAGUUUAUGUUUAGUUGGAAUUCUCGGGUGCCAA | 0.424 |
| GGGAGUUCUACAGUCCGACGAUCGGACAGAGCUGGGUGCCACAGUUUUCCACCAAGAGCAGCCUCUUUUCUUCAUGGAGUUCUCAGAACCUUUCAGGGUUCAGGAGGCUCCCCUGAGAAUAGACAGGAGAGGGUGGAAUUCUCGGGUGCCAA | 0.332 |
| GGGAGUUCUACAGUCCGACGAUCUGGGGGAAGAAGUGGAAACUAUGUCCAGUGAACUUUUCCAGUAAAUGAAGCAAGCACUAAAGUACUGUCCUGAGUUGGGAACAAAGCACUGUGGGCAAGGUCGAUGCAAUUGGAAUUCUCGGGUGCCAA | 0.4 |
| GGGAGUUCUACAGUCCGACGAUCAACCCGAAUCUGAGAAGGAAUUGCGUCAUGUAAGGGAAGCUGGAAUUAAGGGAGCUGAGCCAGUCAUGGUUGUGGCGUGUGAGUCAGGAGACCUAGGUUUCAGCCCCUCUUGGAAUUCUCGGGUGCCAA | 3.16 |
| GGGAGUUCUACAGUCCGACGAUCGUGAUGUGAAACGCUGCACUACUGCGGUGAAUGGGUUCACACAUGGGUAAUGAGCAAAACCGAAAGCUCGGUGUGACUCAGUUUCCUCACUCCCAUUUUGCUUUAAUUUCUGGAAUUCUCGGGUGCCAA | 0.535 |
| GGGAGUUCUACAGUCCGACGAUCCAAAGGACCAGCUCCACACUGCCCCCUGCAGUUGAAUAGUGGACAGUAGCUGGUGUGACUGAACAGCAAUGGGGUGGUUGGUACUCAAUGCCUAGGUGAGCCAGUGGUUCUGGAAUUCUCGGGUGCCAA | 0.329 |
| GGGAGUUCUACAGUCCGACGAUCGCCUUCUUUAUAAAAUAAGUGUAAGUUGUUCAGCCUGCCUCACAGGGCUGUUGUGAGGAAAUAAAAUGAAAUGGAGUAUGUGAAAUUGCUUCAGCAACAGCAAAGUGCUAUGGAAUUCUCGGGUGCCAA | 1.07 |

For quick reference, copied from above (set 4):
| Strand | RBNS enrichment (R) |
| --- | --- |
| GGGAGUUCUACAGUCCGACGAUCCCUGCUGUAUUUGUUGUGUAACAUAAAUAAGCCUUCUGAGAAGCAGGGUGAAUAAAGUUUAGGGAGCUGGGACACCUGGUCCUGCUAGCUGGACCACUGGCUCAUCAUGCUGGAAUUCUCGGGUGCCAA | 0.331 |
| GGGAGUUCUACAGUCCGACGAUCAACCCGAAUCUGAGAAGGAAUUGCGUCAUGUAAGGGAAGCUGGAAUUAAGGGAGCUGAGCCAGUCAUGGUUGUGGCGUGUGAGUCAGGAGACCUAGGUUUCAGCCCCUCUUGGAAUUCUCGGGUGCCAA | 3.16 |
| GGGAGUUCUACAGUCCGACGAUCUCCGUCCCCCAAACAUGUUGUACAUUUCACCAUGGCCCCCUCAUCAUAGCAAUAACAUUCCCACUGCCAGGGGUUCUUGAGCCAGCCAGGCCCUGCCAGUGGGGAAGGAGUGGAAUUCUCGGGUGCCAA | 0.58 |
| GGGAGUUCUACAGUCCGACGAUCGUGAUGUGAAACGCUGCACUACUGCGGUGAAUGGGUUCACACAUGGGUAAUGAGCAAAACCGAAAGCUCGGUGUGACUCAGUUUCCUCACUCCCAUUUUGCUUUAAUUUCUGGAAUUCUCGGGUGCCAA | 0.535 |
| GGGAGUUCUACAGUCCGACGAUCAUUGAAAAUGUUUAAUACAUCUCAUUAUUGACAAAAUAUGUCAUCUUGUAUUUAUUUCAAGGAAACCAAUGAAUUCUAGGUAGUAUAUUACAAGUUGGUCAAAAUAUUCCUGGAAUUCUCGGGUGCCAA | 0.901 |
| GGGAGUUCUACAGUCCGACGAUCAUAACUAAACUGAAUAUCAUCCCAUAUUGAUUUUAGGAAUUGACUCUAAAACUCUGUGCAGAAUCUUGUGUUGGGAUUGUAUCUUGACAUUCCUGUUGUGUUAUUUUUCUUGGAAUUCUCGGGUGCCAA | 0.529 |
| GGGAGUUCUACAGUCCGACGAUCGCCUUCUUUAUAAAAUAAGUGUAAGUUGUUCAGCCUGCCUCACAGGGCUGUUGUGAGGAAAUAAAAUGAAAUGGAGUAUGUGAAAUUGCUUCAGCAACAGCAAAGUGCUAUGGAAUUCUCGGGUGCCAA | 1.07 |
| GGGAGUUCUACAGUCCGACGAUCGAUAGAGGCAACUCCCAGGCCAGUGAGCUUUACUUGCCGUGUAAAAGGAGGAAAGGGGUGGAAAAAAACCGACUUUCUGCAUUUAACUACAAAAAAAGUUUAUGUUUAGUUGGAAUUCUCGGGUGCCAA | 0.424 |
| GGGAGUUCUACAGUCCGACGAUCGACCCUGCCACUGCUUCUUGCCCUGAGGUUUGGAAGCUGAGAGUUAUAGAAGCCAAUUCACCAGGAGGUAAGACAUCCCAGGCUGACAUGGGCAAAUGAAAAGGGCUAUUUGGAAUUCUCGGGUGCCAA | 0.502 |
| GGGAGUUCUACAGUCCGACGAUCGGACAGAGCUGGGUGCCACAGUUUUCCACCAAGAGCAGCCUCUUUUCUUCAUGGAGUUCUCAGAACCUUUCAGGGUUCAGGAGGCUCCCCUGAGAAUAGACAGGAGAGGGUGGAAUUCUCGGGUGCCAA | 0.332 |
